# Experimental data from different studies.
# Each line is one published result; not all experiments were run side by side. ± marks the error that the study gave.
# Sequence of UniProt P22736 (whole entry, looked up): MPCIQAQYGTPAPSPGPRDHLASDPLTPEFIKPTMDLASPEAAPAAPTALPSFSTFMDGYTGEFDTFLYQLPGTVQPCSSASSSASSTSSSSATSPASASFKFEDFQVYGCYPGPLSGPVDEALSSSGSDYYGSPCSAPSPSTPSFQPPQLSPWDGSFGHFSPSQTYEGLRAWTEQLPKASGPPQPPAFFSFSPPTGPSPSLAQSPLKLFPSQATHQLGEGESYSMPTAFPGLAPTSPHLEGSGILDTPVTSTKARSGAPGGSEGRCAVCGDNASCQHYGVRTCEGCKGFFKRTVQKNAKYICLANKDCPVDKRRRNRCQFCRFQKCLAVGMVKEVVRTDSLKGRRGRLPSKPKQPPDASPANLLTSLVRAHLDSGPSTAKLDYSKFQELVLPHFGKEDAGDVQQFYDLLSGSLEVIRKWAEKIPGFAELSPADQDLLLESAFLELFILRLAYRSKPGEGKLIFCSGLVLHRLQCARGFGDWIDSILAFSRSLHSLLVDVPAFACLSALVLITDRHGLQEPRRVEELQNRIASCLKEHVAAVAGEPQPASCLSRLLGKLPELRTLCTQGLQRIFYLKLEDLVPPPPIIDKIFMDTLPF
# Sequence of UniProt P05067 (whole entry, looked up): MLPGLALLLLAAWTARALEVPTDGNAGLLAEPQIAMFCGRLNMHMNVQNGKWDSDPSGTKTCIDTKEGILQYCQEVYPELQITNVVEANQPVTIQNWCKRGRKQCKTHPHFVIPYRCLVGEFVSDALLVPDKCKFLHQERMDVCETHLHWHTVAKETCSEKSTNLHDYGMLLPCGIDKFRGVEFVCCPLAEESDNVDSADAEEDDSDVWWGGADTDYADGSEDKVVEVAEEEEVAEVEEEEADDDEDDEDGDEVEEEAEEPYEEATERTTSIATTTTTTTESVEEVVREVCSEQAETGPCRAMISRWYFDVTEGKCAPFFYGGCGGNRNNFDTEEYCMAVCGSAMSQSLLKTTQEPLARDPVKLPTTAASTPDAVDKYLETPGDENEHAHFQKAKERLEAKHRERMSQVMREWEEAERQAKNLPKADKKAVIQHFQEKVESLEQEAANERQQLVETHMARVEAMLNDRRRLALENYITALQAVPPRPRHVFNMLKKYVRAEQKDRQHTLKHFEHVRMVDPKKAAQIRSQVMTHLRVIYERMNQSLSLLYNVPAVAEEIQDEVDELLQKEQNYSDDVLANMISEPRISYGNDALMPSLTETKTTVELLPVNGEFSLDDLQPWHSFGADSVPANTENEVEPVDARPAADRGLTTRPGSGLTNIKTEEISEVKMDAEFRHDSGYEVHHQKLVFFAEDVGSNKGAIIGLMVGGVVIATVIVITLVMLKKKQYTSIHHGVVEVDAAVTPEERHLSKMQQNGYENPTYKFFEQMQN
# Sequence of UniProt O14786 (whole entry, unmodified, looked up): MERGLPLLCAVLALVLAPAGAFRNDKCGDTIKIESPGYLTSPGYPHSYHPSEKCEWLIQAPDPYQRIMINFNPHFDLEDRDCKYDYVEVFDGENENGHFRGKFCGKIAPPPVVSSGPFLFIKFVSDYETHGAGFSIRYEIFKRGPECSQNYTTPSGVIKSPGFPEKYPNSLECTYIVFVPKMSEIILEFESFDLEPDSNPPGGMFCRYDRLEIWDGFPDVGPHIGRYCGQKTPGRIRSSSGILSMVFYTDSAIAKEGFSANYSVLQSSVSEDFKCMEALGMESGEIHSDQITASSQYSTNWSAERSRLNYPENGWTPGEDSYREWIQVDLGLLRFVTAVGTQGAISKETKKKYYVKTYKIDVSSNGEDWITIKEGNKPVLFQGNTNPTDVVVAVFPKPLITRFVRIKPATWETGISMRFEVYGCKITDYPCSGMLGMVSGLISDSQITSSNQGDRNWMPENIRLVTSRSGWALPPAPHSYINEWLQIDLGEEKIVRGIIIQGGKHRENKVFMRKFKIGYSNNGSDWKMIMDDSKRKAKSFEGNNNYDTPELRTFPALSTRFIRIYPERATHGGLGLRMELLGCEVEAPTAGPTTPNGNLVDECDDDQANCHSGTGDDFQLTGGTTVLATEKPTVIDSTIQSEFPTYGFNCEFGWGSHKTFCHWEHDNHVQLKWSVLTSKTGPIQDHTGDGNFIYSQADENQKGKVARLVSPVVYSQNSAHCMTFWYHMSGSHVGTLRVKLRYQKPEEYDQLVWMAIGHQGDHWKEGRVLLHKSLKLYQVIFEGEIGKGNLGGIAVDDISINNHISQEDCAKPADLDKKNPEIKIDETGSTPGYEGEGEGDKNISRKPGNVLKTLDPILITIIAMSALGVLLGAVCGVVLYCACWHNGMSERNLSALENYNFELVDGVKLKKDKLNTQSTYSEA
# Sequence of UniProt Q9Y294 (whole entry, unmodified, looked up): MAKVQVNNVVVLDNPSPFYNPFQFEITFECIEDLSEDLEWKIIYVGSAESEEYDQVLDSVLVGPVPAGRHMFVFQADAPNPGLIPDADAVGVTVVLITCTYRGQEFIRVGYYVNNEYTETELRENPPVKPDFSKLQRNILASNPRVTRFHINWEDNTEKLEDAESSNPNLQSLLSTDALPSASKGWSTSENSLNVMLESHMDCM
# Sequence of UniProt P61981 (whole entry, looked up): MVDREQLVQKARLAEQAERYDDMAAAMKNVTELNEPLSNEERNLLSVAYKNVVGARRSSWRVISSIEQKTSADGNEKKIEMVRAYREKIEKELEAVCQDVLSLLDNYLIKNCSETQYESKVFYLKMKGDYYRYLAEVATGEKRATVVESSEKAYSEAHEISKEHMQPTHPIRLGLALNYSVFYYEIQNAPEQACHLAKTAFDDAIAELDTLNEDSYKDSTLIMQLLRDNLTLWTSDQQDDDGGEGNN
# Sequence of UniProt Q01650 (whole entry, looked up): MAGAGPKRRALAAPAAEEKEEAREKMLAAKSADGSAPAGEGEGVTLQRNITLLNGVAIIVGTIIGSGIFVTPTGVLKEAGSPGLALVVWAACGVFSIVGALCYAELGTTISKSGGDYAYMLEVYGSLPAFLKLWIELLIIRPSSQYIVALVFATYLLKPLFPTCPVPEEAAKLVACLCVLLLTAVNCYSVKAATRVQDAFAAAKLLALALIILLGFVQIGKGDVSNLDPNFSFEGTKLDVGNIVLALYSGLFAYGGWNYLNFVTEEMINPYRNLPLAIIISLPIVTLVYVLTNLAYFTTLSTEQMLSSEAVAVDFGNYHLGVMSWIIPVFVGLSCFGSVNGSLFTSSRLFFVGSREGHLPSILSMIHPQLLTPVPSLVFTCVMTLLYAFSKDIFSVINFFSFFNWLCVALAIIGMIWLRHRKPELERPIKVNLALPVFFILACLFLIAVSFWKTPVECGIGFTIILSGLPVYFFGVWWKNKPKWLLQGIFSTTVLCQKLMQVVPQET
# Sequence of UniProt P63104 (whole entry, looked up): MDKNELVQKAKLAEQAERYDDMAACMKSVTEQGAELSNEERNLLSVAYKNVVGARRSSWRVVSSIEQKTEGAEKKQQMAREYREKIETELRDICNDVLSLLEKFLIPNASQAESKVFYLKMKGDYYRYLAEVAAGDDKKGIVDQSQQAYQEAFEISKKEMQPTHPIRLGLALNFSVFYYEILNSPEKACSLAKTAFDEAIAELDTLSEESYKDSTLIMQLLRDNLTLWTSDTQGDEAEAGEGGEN
# Sequence of UniProt Q04206 (whole entry, looked up): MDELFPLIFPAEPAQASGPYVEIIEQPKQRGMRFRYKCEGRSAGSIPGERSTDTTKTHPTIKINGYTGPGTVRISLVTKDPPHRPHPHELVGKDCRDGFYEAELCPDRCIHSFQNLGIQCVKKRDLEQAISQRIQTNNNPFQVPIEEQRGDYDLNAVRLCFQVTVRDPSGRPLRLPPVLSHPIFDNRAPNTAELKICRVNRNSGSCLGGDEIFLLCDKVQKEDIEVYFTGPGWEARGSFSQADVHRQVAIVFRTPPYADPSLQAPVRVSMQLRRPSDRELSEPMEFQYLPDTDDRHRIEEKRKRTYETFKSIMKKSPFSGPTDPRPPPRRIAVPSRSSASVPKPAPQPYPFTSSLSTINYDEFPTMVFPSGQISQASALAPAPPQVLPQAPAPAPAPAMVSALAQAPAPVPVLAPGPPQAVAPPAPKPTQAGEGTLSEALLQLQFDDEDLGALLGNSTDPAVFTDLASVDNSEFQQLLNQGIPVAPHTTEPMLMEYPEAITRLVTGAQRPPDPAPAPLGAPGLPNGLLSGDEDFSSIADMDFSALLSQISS
# Sequence of UniProt Q14145 (whole entry, unmodified, looked up): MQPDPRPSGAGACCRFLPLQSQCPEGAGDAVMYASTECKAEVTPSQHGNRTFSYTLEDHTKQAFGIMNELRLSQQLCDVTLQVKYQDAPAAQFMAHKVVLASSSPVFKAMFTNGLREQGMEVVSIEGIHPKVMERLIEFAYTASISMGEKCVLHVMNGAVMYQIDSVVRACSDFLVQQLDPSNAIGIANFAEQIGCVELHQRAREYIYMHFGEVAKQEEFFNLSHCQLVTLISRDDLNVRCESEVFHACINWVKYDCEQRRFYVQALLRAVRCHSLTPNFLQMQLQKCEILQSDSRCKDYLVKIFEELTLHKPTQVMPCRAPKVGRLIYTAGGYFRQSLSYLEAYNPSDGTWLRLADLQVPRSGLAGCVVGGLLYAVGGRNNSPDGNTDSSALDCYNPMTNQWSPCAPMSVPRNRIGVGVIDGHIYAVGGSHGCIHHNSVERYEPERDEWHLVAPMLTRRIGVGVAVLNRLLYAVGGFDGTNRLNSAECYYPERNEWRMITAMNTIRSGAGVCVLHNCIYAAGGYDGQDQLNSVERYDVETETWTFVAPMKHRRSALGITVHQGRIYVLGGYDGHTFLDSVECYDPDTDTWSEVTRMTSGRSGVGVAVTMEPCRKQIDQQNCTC
SMILES,target,assay,test system,setting,scale,measurement,value
Nc1nc2c(ncn2[C@@H]2O[C@@H]3COP(=O)(O)O[C@H]4[C@@H](O)[C@H](n5cnc6c(N)ncnc65)O[C@@H]4COP(=O)(O)O[C@H]3[C@H]2O)c(=O)[nH]1,"Reduced folate transporter (SLC19A1, Homo sapiens, UniProt P41440)",inhibitor,THP-1,"100 µM, 1 h",,2'3'-cGAMP uptake,inhibited
CC(=O)N1CCN(S(=O)(=O)c2ccc(C=O)cc2)CC1,"YWHAG/RELA (Homo sapiens, UniProt P61981+Q04206)","14-3-3/p65 binding stabilisation, fluorescence anisotropy",,"1 mM, with: FITC-labelled bivalent p65 peptide",reference: DMSO control,stabilisation factor,3
CC[C@H](C)[C@H](NC(=O)[C@H](CCCNC(=N)N)NC(=O)NC[C@H](CCC(N)=O)NC(=O)NC[C@H](CC(C)C)NC(=O)NC[C@H](CCCNC(=N)N)NC(=O)NC[C@H](Cc1ccc2ccccc2c1)NC(=O)[C@H](CCCCN)NC(=O)[C@H](CCC(=O)O)NC(=O)[C@H](CCC(=O)O)NC(=O)[C@@H](NC(=O)[C@H](CO)NC(=O)[C@H](C)NC(C)=O)[C@@H](C)O)C(=O)N[C@@H](C)C(N)=O,"Histone chaperone ASF1A (Homo sapiens, UniProt Q9Y294)",isothermal titration calorimetry,,"pH 7.5, 20 °C",,-TΔS,-4.3 ± 0.2 kcal/mol
CC[C@H](C)[C@H](NC(=O)[C@H](CCCNC(=N)N)NC(=O)[C@H](CCCCN)NC(=O)[C@@H](NC(=O)[C@H](C)NC(=O)[C@H](CCCNC(=N)N)NC(=O)[C@H](CCC(N)=O)NC(=O)[C@H](CO)NC(=O)[C@H](CCCCN)NC(=O)[C@H](CC(N)=O)NC(=O)[C@@H](N)CCCNC(=N)N)[C@@H](C)O)C(=O)N[C@@H](CO)C(=O)N[C@@H](Cc1c[nH]cn1)C(=O)N[C@@H](CCSC)C(=O)N1CCC[C@H]1C(=O)N[C@@H](CO)C(=O)N[C@@H](CCCNC(=N)N)C(=O)N1CCC[C@H]1C(=O)N[C@@H](CCC(=O)O)C(=O)N[C@@H](CC(C)C)C(=O)N[C@@H](CO)C(=O)N[C@@H](C)C(=O)N[C@H](C(=O)N[C@@H](C)C(=O)N[C@H](C(=O)N[C@@H](CC(=O)O)C(=O)N[C@@H](CC(C)C)C(=O)N[C@@H](CCCNC(=N)N)C(=O)N[C@@H](CCCCN)C(=O)N[C@@H](CC(=O)O)C(=O)N[C@@H](CCCCN)C(=O)N[C@@H](C)C(=O)N[C@@H](CCCCN)C(=O)N[C@@H](COP(=O)(O)O)C(=O)N[C@@H](CSC/C=C(\C)CC/C=C(\C)CCC=C(C)C)C(=O)OC)[C@@H](C)O)C(C)C,"14-3-3 protein zeta/delta (YWHAZ, Homo sapiens, UniProt P63104)","dissociation, stopped-flow fluorescence polarization",,two-step model,,koff,10.9 s⁻¹
COc1cccc2c1C(=O)c1c(O)c3c(c(O)c1C2=O)CC(O)(C(=O)CO)CC3OC1CC(NC(=O)C[C@H](N)C(=O)O)C(O)C(C)O1 (some centres unmarked),"Large neutral amino acids transporter small subunit 1 (SLC7A5, Homo sapiens, UniProt Q01650)","transport, substrate",S2 cells expressing SLC7A5,,,Km,41.4 µM
OC[C@H]1O[C@@H](OCc2cn([C@@H]3O[C@H](CO)[C@@H](n4cc(-c5ccc(-c6cn([C@H]7[C@H](O)[C@@H](O)[C@H](n8cc(CO[C@@H]9O[C@H](CO)[C@H](O)[C@H](O)[C@H]9O)nn8)O[C@@H]7CO)nn6)cc5)nn4)[C@H](O)[C@H]3O)nn2)[C@H](O)[C@@H](O)[C@H]1O,"PA-I galactophilic lectin (lecA, Pseudomonas aeruginosa, UniProt Q05097)",isothermal titration calorimetry,,298 K,,-TΔS,12 ± 1.8 kcal/mol
CC1=C(O)C(=O)C=C2C1=CC=C1[C@@]2(C)CC[C@@]2(C)[C@@H]3C[C@](C)(C(=O)NCCOCCOCCOCCOCC(=O)N[C@H](C(=O)N4C[C@H](O)C[C@H]4C(=O)N[C@@H](C)c4ccc(-c5scnc5C)cc4)C(C)(C)C)CC[C@]3(C)CC[C@]12C,"Nuclear receptor subfamily 4 group A member 1 (NR4A1, Homo sapiens, UniProt P22736)","protein degradation, degrader, immunoblotting",M229 melanoma cells,"concentration not given, 16 h",,protein level,decreased
N=C(N)NCCC[C@H](NC(=O)[C@@H]1CCCN1C(=O)[C@H](CC(N)=O)NC(=O)[C@H](CCCNC(=N)N)NC(=O)[C@@H]1CCCN1C(=O)[C@H](CCCCN)NC(=O)[C@H](CCCCN)NC(=O)[C@H](CCC(N)=O)NC(=O)[C@H](CC(=O)O)NC(=O)[C@@H](N)Cc1c[nH]c2ccccc12)C(=O)O,"Neuropilin-1 (NRP1, Homo sapiens, UniProt O14786)","binding, ITC",,"pH 7.4, 30 °C",,TΔS,-10 kcal/mol
[3H]C([3H])([3H])c1cnccc1CN1C[C@@H](c2cc(F)c(F)c(F)c2)CC1=O,"Synaptic vesicle glycoprotein 2A (SV2A, Homo sapiens, UniProt Q7L0J3)",radioligand binding,"human control, frontal cortex",,reference: P1 over P2 fraction,specific binding ratio,~1.4 fold
CC(=O)N[C@@H](CO)C(=O)N[C@@H](CC(C)C)C(=O)N[C@@H](CCC(=O)O)C(=O)N[C@@H](CCC(=O)O)C(=O)N1CCC[C@H]1C(=O)N[C@@H](Cc1c[nH]cn1)C(=O)N[C@@H](COP(=O)(O)O)C(=O)N1CCC[C@H]1C(=O)N[C@@H](CCC(=O)O)C(=O)N[C@H](C(=O)NCC(=O)N[C@@H](CCC(=O)O)C(=O)N[C@@H](CCCCN)C(=O)N[C@H](C(=O)N[C@H](C(=O)N[C@@H](C)C(=O)NCC(=O)N[C@@H](CCC(=O)O)C(=O)N[C@H](C(=O)N[C@@H](CC(N)=O)C(N)=O)C(C)C)C(C)C)C(C)C)[C@@H](C)O,"Kelch-like ECH-associated protein 1, Kelch domain (KEAP1, Homo sapiens, UniProt Q14145)",isothermal titration calorimetry,Kelch domain,"pH 7, 298.15 K",,ΔG,-7.95 ± 0.1 kcal/mol
COCCOCCOCCOCCOC(=O)/C(C#N)=C/c1ccc2cc(N3CCCCC3)ccc2c1,"Amyloid-beta precursor protein, Aβ42 aggregates (APP, Homo sapiens, UniProt P05067)",fluorescence,,"free probe, 5% DMSO in water",,emission maximum,590 nm

# Some of these lines once more:
SMILES,target,assay,test system,setting,scale,measurement,value
CC[C@H](C)[C@H](NC(=O)[C@H](CCCNC(=N)N)NC(=O)NC[C@H](CCC(N)=O)NC(=O)NC[C@H](CC(C)C)NC(=O)NC[C@H](CCCNC(=N)N)NC(=O)NC[C@H](Cc1ccc2ccccc2c1)NC(=O)[C@H](CCCCN)NC(=O)[C@H](CCC(=O)O)NC(=O)[C@H](CCC(=O)O)NC(=O)[C@@H](NC(=O)[C@H](CO)NC(=O)[C@H](C)NC(C)=O)[C@@H](C)O)C(=O)N[C@@H](C)C(N)=O,"Histone chaperone ASF1A (Homo sapiens, UniProt Q9Y294)",isothermal titration calorimetry,,"pH 7.5, 20 °C",,-TΔS,-4.3 ± 0.2 kcal/mol
